Measurements from different studies.
Compare with care: the assays were run in different laboratories.
GBA2: Beta-glucosidase (GBA2, Homo sapiens, UniProt Q9HCG7)
Sequence of UniProt Q9HCG7 (whole entry, looked up): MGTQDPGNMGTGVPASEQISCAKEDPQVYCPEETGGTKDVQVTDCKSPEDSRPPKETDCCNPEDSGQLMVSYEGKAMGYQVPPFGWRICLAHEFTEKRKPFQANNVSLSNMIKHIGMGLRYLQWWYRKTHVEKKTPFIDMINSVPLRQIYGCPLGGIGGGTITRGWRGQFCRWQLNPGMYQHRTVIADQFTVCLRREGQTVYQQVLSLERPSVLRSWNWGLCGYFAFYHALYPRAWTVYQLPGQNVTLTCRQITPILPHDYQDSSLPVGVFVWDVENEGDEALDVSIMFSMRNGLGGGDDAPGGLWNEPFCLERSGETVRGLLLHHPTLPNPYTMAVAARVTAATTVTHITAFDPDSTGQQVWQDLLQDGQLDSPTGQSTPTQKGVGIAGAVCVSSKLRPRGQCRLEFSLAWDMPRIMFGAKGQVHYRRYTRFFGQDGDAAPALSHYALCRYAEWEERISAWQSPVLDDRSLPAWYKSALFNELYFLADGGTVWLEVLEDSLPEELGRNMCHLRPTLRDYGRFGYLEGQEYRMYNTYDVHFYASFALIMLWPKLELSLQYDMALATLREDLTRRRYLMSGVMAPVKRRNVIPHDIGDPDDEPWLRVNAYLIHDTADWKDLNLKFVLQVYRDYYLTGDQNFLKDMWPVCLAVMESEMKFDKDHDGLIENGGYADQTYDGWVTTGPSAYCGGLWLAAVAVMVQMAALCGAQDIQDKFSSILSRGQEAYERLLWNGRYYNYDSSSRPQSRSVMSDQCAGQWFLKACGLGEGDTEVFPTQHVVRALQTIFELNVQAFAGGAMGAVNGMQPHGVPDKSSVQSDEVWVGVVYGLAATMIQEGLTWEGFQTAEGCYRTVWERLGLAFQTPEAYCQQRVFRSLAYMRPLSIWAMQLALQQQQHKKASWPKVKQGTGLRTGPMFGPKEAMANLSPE
PPARA ligand-binding domain: Peroxisome proliferator-activated receptor alpha, ligand-binding domain (PPARA, Homo sapiens, UniProt Q07869)
Sequence of UniProt Q07869 (whole entry, looked up): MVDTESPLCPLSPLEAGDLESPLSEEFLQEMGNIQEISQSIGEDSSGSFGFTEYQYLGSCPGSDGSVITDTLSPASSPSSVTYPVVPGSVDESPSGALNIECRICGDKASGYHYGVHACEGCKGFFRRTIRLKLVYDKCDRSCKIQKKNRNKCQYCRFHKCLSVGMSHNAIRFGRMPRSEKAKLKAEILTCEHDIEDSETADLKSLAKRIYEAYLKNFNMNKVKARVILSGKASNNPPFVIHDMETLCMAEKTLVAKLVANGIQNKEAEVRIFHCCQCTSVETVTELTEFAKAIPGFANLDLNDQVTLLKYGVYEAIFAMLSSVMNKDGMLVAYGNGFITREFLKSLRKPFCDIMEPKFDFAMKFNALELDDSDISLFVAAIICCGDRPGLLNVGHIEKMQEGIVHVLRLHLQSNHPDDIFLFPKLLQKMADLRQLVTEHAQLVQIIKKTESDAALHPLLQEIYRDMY
Chymotrypsinogen A: Chymotrypsinogen A (Bos taurus, UniProt P00766)
Sequence of UniProt A0A024B7W1 (whole entry, looked up): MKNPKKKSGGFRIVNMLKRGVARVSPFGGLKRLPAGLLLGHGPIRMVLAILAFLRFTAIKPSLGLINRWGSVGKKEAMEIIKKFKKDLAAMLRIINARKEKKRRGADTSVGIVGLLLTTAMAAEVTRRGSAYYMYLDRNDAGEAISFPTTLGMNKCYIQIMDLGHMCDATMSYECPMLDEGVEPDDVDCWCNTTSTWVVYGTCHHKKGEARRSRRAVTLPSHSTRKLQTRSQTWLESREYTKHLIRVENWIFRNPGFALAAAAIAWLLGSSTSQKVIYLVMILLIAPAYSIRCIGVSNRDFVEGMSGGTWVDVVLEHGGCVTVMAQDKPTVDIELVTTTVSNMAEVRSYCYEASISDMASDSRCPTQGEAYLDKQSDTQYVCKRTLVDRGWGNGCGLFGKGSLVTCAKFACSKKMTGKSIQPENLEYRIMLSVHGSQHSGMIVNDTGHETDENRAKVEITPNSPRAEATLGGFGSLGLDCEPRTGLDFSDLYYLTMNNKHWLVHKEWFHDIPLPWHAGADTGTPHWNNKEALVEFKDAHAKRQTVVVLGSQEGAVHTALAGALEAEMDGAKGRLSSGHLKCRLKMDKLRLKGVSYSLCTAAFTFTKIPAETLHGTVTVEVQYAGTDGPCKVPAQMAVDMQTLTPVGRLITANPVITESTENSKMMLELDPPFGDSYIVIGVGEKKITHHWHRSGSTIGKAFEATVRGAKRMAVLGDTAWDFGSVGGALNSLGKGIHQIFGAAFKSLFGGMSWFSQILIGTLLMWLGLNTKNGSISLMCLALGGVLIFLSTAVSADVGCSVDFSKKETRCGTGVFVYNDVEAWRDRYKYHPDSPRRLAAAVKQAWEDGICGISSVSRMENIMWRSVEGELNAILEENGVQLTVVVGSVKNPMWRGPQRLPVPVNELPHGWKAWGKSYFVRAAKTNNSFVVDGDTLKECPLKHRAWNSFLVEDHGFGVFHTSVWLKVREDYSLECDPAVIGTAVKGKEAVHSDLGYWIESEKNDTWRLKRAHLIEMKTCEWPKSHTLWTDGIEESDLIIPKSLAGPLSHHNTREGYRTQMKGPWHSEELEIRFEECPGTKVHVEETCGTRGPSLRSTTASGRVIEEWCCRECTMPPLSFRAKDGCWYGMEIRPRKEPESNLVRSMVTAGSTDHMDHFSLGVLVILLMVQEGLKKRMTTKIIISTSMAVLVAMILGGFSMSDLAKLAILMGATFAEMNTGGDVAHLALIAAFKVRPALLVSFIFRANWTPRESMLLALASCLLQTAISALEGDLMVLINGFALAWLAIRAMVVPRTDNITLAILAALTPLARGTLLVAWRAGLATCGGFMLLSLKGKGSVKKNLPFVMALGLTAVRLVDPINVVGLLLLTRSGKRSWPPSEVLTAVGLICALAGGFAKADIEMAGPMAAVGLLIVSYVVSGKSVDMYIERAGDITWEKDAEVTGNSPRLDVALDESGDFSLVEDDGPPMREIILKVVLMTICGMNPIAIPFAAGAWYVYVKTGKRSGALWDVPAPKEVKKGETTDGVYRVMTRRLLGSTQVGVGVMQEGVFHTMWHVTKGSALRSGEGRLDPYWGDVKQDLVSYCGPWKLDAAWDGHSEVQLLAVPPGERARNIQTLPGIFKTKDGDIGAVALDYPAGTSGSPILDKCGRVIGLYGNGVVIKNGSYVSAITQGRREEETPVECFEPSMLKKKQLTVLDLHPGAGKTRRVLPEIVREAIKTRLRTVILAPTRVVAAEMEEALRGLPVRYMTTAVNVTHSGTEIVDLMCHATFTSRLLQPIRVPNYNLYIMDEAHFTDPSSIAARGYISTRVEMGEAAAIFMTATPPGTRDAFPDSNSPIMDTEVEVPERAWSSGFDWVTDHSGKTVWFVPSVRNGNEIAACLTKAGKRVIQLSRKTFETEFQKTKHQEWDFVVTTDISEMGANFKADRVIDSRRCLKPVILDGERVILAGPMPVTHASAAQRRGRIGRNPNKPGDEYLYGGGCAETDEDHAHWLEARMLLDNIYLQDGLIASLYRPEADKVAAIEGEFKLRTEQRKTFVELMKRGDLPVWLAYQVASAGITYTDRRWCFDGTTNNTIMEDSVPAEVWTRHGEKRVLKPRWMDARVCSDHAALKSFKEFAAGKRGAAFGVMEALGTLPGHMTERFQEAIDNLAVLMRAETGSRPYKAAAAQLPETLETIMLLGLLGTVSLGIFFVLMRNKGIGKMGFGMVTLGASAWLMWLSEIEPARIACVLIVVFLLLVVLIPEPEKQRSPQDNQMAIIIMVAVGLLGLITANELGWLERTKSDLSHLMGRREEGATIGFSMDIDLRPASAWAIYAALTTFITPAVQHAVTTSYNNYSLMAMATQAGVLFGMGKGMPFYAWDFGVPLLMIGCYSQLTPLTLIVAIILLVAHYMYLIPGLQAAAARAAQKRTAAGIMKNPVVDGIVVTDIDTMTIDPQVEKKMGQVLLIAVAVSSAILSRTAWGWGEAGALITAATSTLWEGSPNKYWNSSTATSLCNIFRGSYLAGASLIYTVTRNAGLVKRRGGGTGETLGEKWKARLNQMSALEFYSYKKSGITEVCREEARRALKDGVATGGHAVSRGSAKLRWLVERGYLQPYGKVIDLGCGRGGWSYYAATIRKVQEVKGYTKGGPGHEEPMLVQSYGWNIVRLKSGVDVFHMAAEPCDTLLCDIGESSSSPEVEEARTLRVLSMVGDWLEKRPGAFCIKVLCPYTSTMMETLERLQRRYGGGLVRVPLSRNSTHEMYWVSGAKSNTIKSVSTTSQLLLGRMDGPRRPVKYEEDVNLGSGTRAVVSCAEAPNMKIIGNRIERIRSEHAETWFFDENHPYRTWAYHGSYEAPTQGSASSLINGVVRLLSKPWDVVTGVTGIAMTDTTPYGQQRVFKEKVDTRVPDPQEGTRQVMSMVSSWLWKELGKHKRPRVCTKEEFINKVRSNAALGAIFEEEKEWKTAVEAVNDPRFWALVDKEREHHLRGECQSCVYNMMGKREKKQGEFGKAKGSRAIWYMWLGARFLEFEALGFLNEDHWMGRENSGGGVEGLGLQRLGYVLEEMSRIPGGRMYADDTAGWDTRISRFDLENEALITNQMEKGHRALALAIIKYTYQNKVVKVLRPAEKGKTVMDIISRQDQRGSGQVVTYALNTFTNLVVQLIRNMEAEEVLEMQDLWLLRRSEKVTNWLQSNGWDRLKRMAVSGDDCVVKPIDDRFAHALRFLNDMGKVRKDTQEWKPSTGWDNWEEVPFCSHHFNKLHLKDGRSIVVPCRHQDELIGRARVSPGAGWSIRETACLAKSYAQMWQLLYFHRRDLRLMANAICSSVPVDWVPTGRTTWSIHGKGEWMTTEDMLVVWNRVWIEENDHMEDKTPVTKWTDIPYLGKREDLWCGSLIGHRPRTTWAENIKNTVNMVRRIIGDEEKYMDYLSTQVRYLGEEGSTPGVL
Sequence of UniProt P10997 (whole entry, looked up): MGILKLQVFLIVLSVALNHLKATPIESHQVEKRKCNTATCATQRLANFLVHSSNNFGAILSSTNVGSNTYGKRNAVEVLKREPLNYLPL

SMILES	target	test	test system	setting	IC50
CCCCCCCCOCCCCCN1C[C@H](O)[C@@H](O)[C@H](O)[C@@H]1CO	GBA2	inhibitor, 4MU-β-D-glucopyranoside	HEK293T homogenates overexpressing GBA2	–	0.015 µM
O=C(Nc1cccc(N2CCNCC2)c1)c1cc(-c2ccccc2)n(-c2ccccc2)n1	Genome polyprotein, NS2B-NS3 protease (ZIKV, UniProt A0A024B7W1)	protease activity, inhibitor	Zika virus	isolated protease	8.3 µM
Cc1c(Cc2ccc(OC(C)C(=O)O)cc2Cl)c2ccc(C(=O)NC(C)c3ccc(C(C)(C)C)cc3)cc2n1C (stereo not drawn)	PPARA ligand-binding domain	reporter gene, luciferase reporter	HEK293T, Gal4-PPARα LBD	–	34 µM
CC(C)=CCC/C(C)=C/CC/C(C)=C/CN1C[C@H](O)[C@@H](O)[C@H](O)[C@H]1CO	GBA2	inhibitor, 4MU-β-D-glucopyranoside	HEK293T homogenates overexpressing GBA2	–	0.025 µM
O=C(NCC1CCOCC1)c1n[nH]cc1NC(=O)c1c(F)cccc1F	Dual specificity tyrosine-phosphorylation-regulated kinase 1B (DYRK1B, Homo sapiens, UniProt Q9Y463)	target engagement in cells, BRET	–	–	2.4 µM
Cc1nn(-c2cccc(N)c2)c(=O)c2cnc(Nc3ccc(N4CCNCC4)cc3)nc12	Serine/threonine-protein kinase Nek4 (NEK4, Homo sapiens, UniProt P51957)	enzyme activity, inhibitor	–	–	1.3 µM
CC1Cc2ccccc2N1C1=C(c2ccc(O)cc2)C(=O)NC1=O (stereo not drawn)	Sensor histidine kinase AirS (Staphylococcus aureus, UniProt Q2FX96)	autophosphorylation, inhibitor, BODIPY-FL-ATPγS competition	–	–	221 µM
OC[C@@H]1[C@@H](O)[C@H](O)[C@@H](O)CN1CCCCOCCC12CC3CC(CC(C3)C1)C2	GBA2	inhibitor, 4MU-β-D-glucopyranoside	HEK293T homogenates overexpressing GBA2	–	0.00415 µM
O=C1Nc2c(Br)cccc2/C1=C1/Nc2ccccc2C1=NO	Mitogen-activated protein kinase 14 (MAPK14, Homo sapiens, UniProt Q16539)	–	–	–	> 10 µM
CCC1(CC)CC(=O)N(C2c3cc(C(=O)NC4c5ccccc5CC4O)ccc3OC2(C)COC)C(=N)N1 (stereo not drawn)	Cytochrome P450 2C8 (CYP2C8, Homo sapiens, UniProt P10632)	enzyme activity, inhibitor	–	–	> 20 µM
O=C(NCc1ccc(N2CCOCC2)cc1)C(C(F)(F)F)C(F)(F)F	Chymotrypsinogen A	enzyme activity, inhibitor, fluorescence	–	–	> 100 µM
COc1ccc([C@H]2N[C@H](C(=O)O)C(C)(C)S2)c(O)c1	Beta-1,4-galactosyltransferase 1 (B4GALT1, Homo sapiens, UniProt P15291)	enzyme activity, inhibitor	–	–	43 µM
COCCNC(=O)COc1ccccc1NC(=O)C(C(F)(F)F)C(F)(F)F	Chymotrypsinogen A	enzyme activity, inhibitor, fluorescence	–	–	110 µM
Cc1nc2ccc(Br)cc2c(=O)n1N	Cathepsin B (CTSB, Homo sapiens, UniProt P07858)	enzyme activity, inhibitor	–	–	94.5 µM
COc1cccc([C@H](C)NC(=O)c2ccc3c(Cc4cccc(OC(C)(C)C(=O)O)c4)c(C)n(C)c3c2)c1	PPARA ligand-binding domain	reporter gene, luciferase reporter	HEK293T, Gal4-PPARα LBD	–	263 µM
CCCCOCCCCCN1C[C@H](O)[C@@H](O)[C@H](O)[C@H]1CO	GBA2	inhibitor, 4MU-β-D-glucopyranoside	HEK293T homogenates overexpressing GBA2	–	0.06 µM
CN(C)c1ccc(/N=N/c2ccccc2C(=O)OCCCCN)cc1	Islet amyloid polypeptide (IAPP, Homo sapiens, UniProt P10997)	ThT displacement, ThT fluorescence	–	pH 7.4, preformed target-ThT complex, added: 5 µM ThT	0.75 µM
CC(C)(C)OC(=O)c1cccc(NC(=O)C(C(F)(F)F)C(F)(F)F)c1	Chymotrypsinogen A	enzyme activity, inhibitor, fluorescence	–	–	> 100 µM

Excerpt of the above:
SMILES	target	test	test system	setting	IC50
CC(C)=CCC/C(C)=C/CC/C(C)=C/CN1C[C@H](O)[C@@H](O)[C@H](O)[C@H]1CO	GBA2	inhibitor, 4MU-β-D-glucopyranoside	HEK293T homogenates overexpressing GBA2	–	0.025 µM
